# Measured values pooled from the literature.
# Every numbered part comes from another study and shows a few of its results, in no order.

# Series 1
# Target: Histone acetyltransferase KAT6A, winged helix 2, GST fusion (KAT6A, Homo sapiens, UniProt Q92794, residues 85-181)
# Technique: protein binding microarray
# Molecule type: double-stranded DNA, one strand shown
# Medium: in vitro
# Concentration: not given
# Setting: 8-mer, flanks averaged, mean of 2 arrays, mostly near background
# Relative to: not given
# Direction: higher = stronger binding
# Target sequence (chain): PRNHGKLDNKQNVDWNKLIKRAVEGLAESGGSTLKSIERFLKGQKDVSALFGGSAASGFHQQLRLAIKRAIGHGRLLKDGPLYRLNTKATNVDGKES
Oligonucleotide,E-score
CATAATAA,-0.0469
GCCGCGGC,0.346
GCCAATAC,-0.116
GTCGTGCA,-0.131
GTGTTAAA,-0.0345
ACCACAGT,0.127
GATGTTCA,-0.199
CCGCTTCG,-0.0141
CTTTCTCC,0.0891
ACTCCGTC,0.104
GCAGTAGA,0.0404
CGTCCGAC,-0.0112
TGGGGACA,-0.00264
ATCTTTTC,-0.106
GAGGTTTA,0.0933
AAACTTGT,0.0726
GTTAGGTA,0.00879
GTCCAATA,-0.0247
ATAGGAAA,-0.0159
CTCAGATC,0.0119
AATTCTAA,0.124
GTAGGGGA,0.0531

# Series 2
# Target: Phosphate system positive regulatory protein PHO4, full length, GST-tagged (PHO4, Saccharomyces cerevisiae, UniProt P07270, residues 1-312)
# Technique: competition protein-binding microarray
# Molecule type: double-stranded DNA, one strand shown
# Medium: in vitro
# Concentration: 2 µM
# Setting: whole 60-bp probe, lowest competitor level
# With: Cbf1 competitor, 0.05 µM
# Direction: higher = stronger binding
# All sequences stand within: … GTCTTGATTCGCTTGACGCTGCTG
# Residues (chain): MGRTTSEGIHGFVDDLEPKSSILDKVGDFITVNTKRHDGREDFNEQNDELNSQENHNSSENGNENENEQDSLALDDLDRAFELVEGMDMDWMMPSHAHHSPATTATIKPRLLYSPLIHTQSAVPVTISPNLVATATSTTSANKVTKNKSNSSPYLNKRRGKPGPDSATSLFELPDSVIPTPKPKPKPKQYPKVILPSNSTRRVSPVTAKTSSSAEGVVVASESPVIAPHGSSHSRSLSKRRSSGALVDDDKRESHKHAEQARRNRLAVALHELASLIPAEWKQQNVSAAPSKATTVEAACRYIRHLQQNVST
Oligonucleotide,fluorescence intensity
ACAAATTAATGGCACAACGTGGGTATGACGAAAAAG,14400 a.u.
GAACCGATGACGAGGCACATGGGGATAGAACCTCCG,12700 a.u.
ACTCCAAAATACATCCTCGTGGCAACCCAGGTTACG,12800 a.u.
CTGCGCTGCGGCCAGCCCGTGAGACCACCCGAGGGA,4760 a.u.
AAAGCGGTAATTTGTCGAGTGGGTGCAGATATCTAT,4330 a.u.
CTTTCCCGATCTTGGGGAGTGGGTGTAGCACATTTG,4880 a.u.
CATACCCAACCTTGTCAAGTGGGTGAAGATATTTGT,3450 a.u.
ATAGCTGCACCAACGTCTCTAGTTAGATATAACGTA,3540 a.u.
TGCGCAACAACTTGGAGAGTGGGTGTATGTCTAGAA,4950 a.u.
AATGCTTGAAAAATTCTCGTGCAAACGGTCCCCTAC,6600 a.u.
CAAGATATAACTCATCACATGTTAAAGAACCCACAA,9580 a.u.
CCTCCGTACCACCCAAACGTGTAGTTTTGATGTTTT,9530 a.u.
AGAAGGTCAAGGAATCTCGTGATGGCATCAAACTAG,5890 a.u.
CTCCTTTGGGATACCACCGTGGGTAATCTCAGCGGG,8170 a.u.
TGCCCGCAGTGGGTCCACGTGAAATGCGAGCCTTTG,12700 a.u.
AAAGCGGTAATTTGTCACCCAACTTCACATATCTAT,3310 a.u.
CCGATGGCACAACACCATGTGATGGGTTGGGAGTGG,10700 a.u.
GTCTTGTCTCATTGTTAGGTGGGTGTCCCCACTTCA,4590 a.u.
TTTCAAGCGTCCGAACGCGTGAGGATATATGCAAGC,5970 a.u.
CATACCCAACCTTGTCACGAAACTTAAGATATTTGT,4040 a.u.
ACATACAAATTTCCGCACGTTTTTAAACTTTTCCGG,16800 a.u.
CTAGATGATAACCGACACGGGTTGGAAGACGGAAAT,8950 a.u.
ATGAAATAACATCCACACGTGTAAGAATATATAATT,17900 a.u.
CCTTCACTATTTTAACATGTGGAATTCTTGAAAGAA,8850 a.u.
TGAAGGATTTGTCCACACGTGGAATCAACATATCTG,17300 a.u.

# Series 3
# Target: Max-binding protein MNT, bHLH-zipper, MAX partner unstated (MNT, Homo sapiens, UniProt Q99583, residues 220-300)
# Technique: protein-binding microarray
# Molecule type: double-stranded DNA, one strand shown
# Medium: in vitro
# Concentration: not given
# Setting: k-mer, scored over probes, only values ≥0.25
# Direction: higher = stronger binding
# Residues (chain): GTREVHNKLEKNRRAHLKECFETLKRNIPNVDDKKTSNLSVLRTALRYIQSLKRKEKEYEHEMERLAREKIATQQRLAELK
Oligonucleotide,E-score
ACGCTTCA,0.278
GCACTCCC,0.268
TCGTGGAA,0.296
ATCGTGGG,0.276
ACCACGCA,0.349
CGTTTACC,0.269
CATGTAAC,0.326
ACATGCCA,0.386
GCATGGTA,0.389
ACCACATG,0.475
GATCACGC,0.335
AGCATGGA,0.375
ACATGTGA,0.466
CACGTGGA,0.495
ACACGTGC,0.495
GTGGGAAC,0.29
GCATGACA,0.341
AAGCGTGG,0.381
ACACGTTC,0.332
GCGGCGCA,0.262
CCTCGCAC,0.262
CACACCCC,0.257
CATGCCAA,0.301

# Series 4
# Target: RNA binding protein fox-1 homolog 2, RRM domain, GST-SBP tag (RBFOX2, Homo sapiens, UniProt O43251-10, residues 100-194)
# Technique: RNA Bind-n-Seq
# Molecule type: RNA
# Medium: in vitro
# Concentration: 365 nM
# Setting: natural RNA segment, single round, ends assumed
# Relative to: no-protein control
# Direction: higher = stronger binding
# All sequences stand within: GGGAGUUCUACAGUCCGACGAUC … UGGAAUUCUCGGGUGCCAA
# Target sequence (chain): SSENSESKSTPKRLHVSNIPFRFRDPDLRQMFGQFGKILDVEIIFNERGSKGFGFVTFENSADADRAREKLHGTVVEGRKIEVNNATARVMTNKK
Oligonucleotide,RBNS enrichment (R)
AGAGCCCCUGCAACUGUUAUCCACAUACAACAGGGAUAUCGGACUGCUUUCUUCUUCCGGCUGGUACAGAAUCUGUGUCCAUCAUUUUUCACUACAGGUCUUGUUAAAAU,0.532
UUUUCCUUUAUGAAGAAAAAAUAAAAUAGUCACAUUUUAAUACUACUCUAGUUAGGACAGACUUGUGCUUUUAUCCUGACUAAAAAGUUAAAUAUUUAAGUCACAUACAU,0.453
GUGGGGGGAAUGGUCCCAGACUCCUCUCGGGGCCCCUAUCCACACAGGGCCUGGUGUUCUACCCCAUCUGGCCCCUGGCCCAUCUCUUCUGUGCCUUAGUCACAUAUGAA,0.196
GACCCGGCCUUUCAAUGAGCUUAGCUUGUGCUCUGUUUCUGCUCUCUUAGGUCUAAACUAUGGUGUCAGUUUUAAUAGAACAAAAGUAUGCAUCUUGCCUUGGCUUGAGC,2.35
AGUUCUUUGGUUCUUUGCUGUUUCUAUUAACCCAUAGCAUUAUUUUAAUAAAUGUUAUAAUACCAACCUACUAACUCUGGACUAUGUUUGUUUAUUAACCUUUCCGUGUU,0.637
AUUCCAGAAUCUCUGCUCUCAGAGUAGCUAAGAGAUUCGGUACAGAAGACGUUCUAUGGAGAAGCACAGGGGGCAUCUAAUGAGAUUGUCAGGCCCUUGGACAAGAUCCA,0.377
GCAUGUUAUGGGGAGGGGAGGGGGUUCUUCCAGCCUCAGGUCCCAGCUGUCUCACGUUGUUUAUUCUGCGUCCCCUUCUCCAAUAAAACAAGCCAGUUGGGCGUGGUUAU,11.8
CAAGGCCAGGGUCUGCUGCACUGCUGUUCUGAUAAUAGGUUCUUAACAUUGUAUGUAUAUGUGUUUGCUUUGGGAGGAGGUGGCACUGUGUUAGUUGACAGUUGUGGGCU,4.73
CAUCAUUGAAGUGUUGGGAUAUGAAUACAUUCCAGAGCAUAGCCUUUUGUAAUUUUAGGUAGUUAUCAGUUUCUCCACUAGCUCCAUGUUCUAGCUUUUUCCUCCCCACA,0.832
AUACAGUUCUCUUUUAAACAUCAAACCAUAAAAAGUGUAUUUUGUAAUUUUACUCUGACCUGCCGCAGUCACCUCUCACUUAUCUCUUCCACGUACUGCACGGUCGUAUU,4.01
GGGCCGGCGCUAGGAUUUGCACUAAUGUUCCUCUCCCCGCGGGUGGGGGCGGGGAAAUUCAUAUCCCCUGUUCGUCUCAUGCGCGUCCUCCGUCCCCAAUCUAAAAAGCA,2.07
UGGCUAUUCAGGGAAAUUACUCUCUACCUCCCCAUGACAUGGAUGAUAAGUGUUGAGGGAUGAACACUCUGGAAACUCUUAGCAUGGAUUUUGAAUUCCAGAUUUCUUUA,2.83

# Series 5
# Target: RING finger protein unkempt homolog, zinc fingers 1-6, GST-SBP tag (UNK, Homo sapiens, UniProt Q9C0B0, residues 30-357)
# Technique: RNA Bind-n-Seq
# Molecule type: RNA
# Medium: in vitro
# Concentration: not given
# Setting: RNA with constant flanks, ends assumed
# Relative to: input RNA pool
# Direction: higher = stronger binding
# All sequences stand within: GGGAGUUCUACAGUCCGACGAUC … CAACAGAGGAUUGAGCAUCA
# Residues (chain): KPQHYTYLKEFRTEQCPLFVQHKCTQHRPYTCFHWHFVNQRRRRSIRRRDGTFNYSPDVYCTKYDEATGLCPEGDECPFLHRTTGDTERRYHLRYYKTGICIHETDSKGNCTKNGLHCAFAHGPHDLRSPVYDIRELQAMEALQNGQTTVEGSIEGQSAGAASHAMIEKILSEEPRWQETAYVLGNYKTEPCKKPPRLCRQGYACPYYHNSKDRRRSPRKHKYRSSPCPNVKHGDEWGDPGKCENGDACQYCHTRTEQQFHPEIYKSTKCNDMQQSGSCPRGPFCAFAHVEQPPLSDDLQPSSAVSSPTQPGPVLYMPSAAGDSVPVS
Oligonucleotide,bound/input enrichment [ratio]
AACAAAUACUGGCCCCUCUUUGUUCUAUUUUUUUACAUCCUUUCACCUAUUCCAUACUGCACCGCAAGAAGAUUAGUGGAUGAUACAGAUGCUAUGAGUAACGCUUGUAAGGAACUUGCC,0.312
UGAAAAUGGCUUCUGCUCCAUUAAAAAGUAAAAAUUGUCCUCCAAAUAUAAAACUCCUUAACCGAUAUUUUUGAAAUUAAAAUCUUUAAAUUUUAUAAAUCAGCUGUUGCCACUACACAA,4.85
CCUGUCUCAGGUUCAAAAGCUGCUUUGCAUGUGCCCAGUAGAUUUUCAUGGAAUCUUCCAACCCGAUGAAAGACGGAGAGAUGCAGUGAUUGCAUUGGGCAUUUUUCUCAUUGAAUCUGA,0.169
GGGAUUUACAUGGUUUAUUGUCGAAAACACAAGAAAACUGCACAUAACUCGGAAGCUGAUUCCGAAGAAAGUUUUAAUGAGCAUGAACUGGAGCCCUCAUCUCCAAAGACUAAGAAGAAA,0.222
AGUUUAAUGUAUAAAGAUCCUCUAGAAAAUGAUAAUAUUGUGUAUUAAGACAUUCCUUAAUCCGGACAAAAUGGCUGCUGUAUAUUUACUAUAUGGAGUUCUGAGUUAAAUACCAUCCUU,1.2
GACGUUAAAAAUUUUCUGUAUGCCUGGUGUGGCAAAAGGAAGAUGACCCCAUCCUAUGAAAUCCGAGCAGUGGGGAACAAAAACAGGCAGAAAUUCAUGUGUGAGGUUCAGGUGGAAGGU,0.299
UUUCCUCACAAAUGUGAAGUCUGUGAUAAAGGUUUUCAUCGUCCUUCAGAGCUUAAAAAACACCGUGAUAUUCAUAAGGGUAGGAAGAUUCACCAGUGUAGGCAUUGUGACUUUAAAACC,0.214
CCAGGGGGUGAUCAAGUACAUGGGGCCGGCAGGAGCAAAGAAUCUGCAGAGUGUUGUGCUCCGUAAAAUGAAUUUUGAAUCUUUUGUAAAAGAUCUUCUUCUGGUUCGUCAGUAUAGAGU,0.321
GAUUACAAGGGGCAGAAACUAGCUGAACAGAUGUUUCAGGGGAUCAUUCUUUUUUCUGCAACCGUUGGGUUUAUCUACGGGUACGUGGCUGAACAGUUUGGGUGGACUGUCUACAUAGUU,0.467
UGCUGCAGUAAAACACUGAAGGCUUUAAAAUGUUUUCUUGCAUAAAAGUCAAACUUUAAGCCGCUGCUUAUGAGGAUAGGGAAGGCAGGAAGCUAAUGUCUGUCUCAAGACACAGGACAG,0.224
CAGAACUGUGGCCCGAGUUUCCAAUCUCUGAUUGUGAAGAAGGAGUUCAUUAAAGAUACUCCCGUUAAGCUGCUGAAUCCCAGAUACACCUUACCGCUGGAGACCCAGAACAGAAUCUUG,0.0786

# A few entries again (series 3):
Oligonucleotide,E-score
CATGTAAC,0.326
CATGCCAA,0.301
ACCACGCA,0.349
AGCATGGA,0.375
TCGTGGAA,0.296
CGTTTACC,0.269
GCATGGTA,0.389
ATCGTGGG,0.276
